Results from different studies.
Each numbered part is a random draw from the data of one study; scales do not carry over between parts.

Set 1
Target: Interferon regulatory factor 3, full length, phosphomimetic (IRF3, Homo sapiens, UniProt Q14653, residues 1-427, S386D/S396D/S398D/S402D/T404D/S405D)
Chain of UniProt Q14653 (whole entry, unmodified, looked up): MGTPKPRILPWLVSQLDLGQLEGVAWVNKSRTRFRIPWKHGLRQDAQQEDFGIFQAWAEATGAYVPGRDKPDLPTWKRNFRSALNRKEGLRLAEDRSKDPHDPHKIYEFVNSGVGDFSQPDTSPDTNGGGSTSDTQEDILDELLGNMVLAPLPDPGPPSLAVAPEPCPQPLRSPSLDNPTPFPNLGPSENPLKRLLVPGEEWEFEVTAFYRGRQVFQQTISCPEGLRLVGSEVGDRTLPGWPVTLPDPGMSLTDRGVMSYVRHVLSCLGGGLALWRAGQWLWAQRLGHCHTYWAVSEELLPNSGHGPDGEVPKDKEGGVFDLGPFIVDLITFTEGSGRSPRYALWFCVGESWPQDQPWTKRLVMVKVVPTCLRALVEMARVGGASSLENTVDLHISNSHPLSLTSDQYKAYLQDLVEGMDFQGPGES
Method: protein-binding microarray
Form: double-stranded DNA, one strand shown
Sample: in vitro
Concentration: 2540 nM top
Setting: 60-bp whole probe
Added: salmon DNA 0.4 mg/ml
Reference: random background probes
Direction: higher = stronger binding
Constant ends, left off below: GCCTAGCAC … GTCTTGATTCGCTTGACGCTGCTG
Oligonucleotide | fitted relative affinity [z-score]
GACGCTTTCGGGTTTCGAGACGTGCTA | 2.95
GACGGTATCGGTTTCGGGTCGTGCTAG | 7.33
TCAAATCTCAGCCTCCGACTGTGCTAG | 0.002
TTAGGACGGCTACTGCTTTAGTGCTAG | -0.903
GAGGGTATCCTACTGCTGACGTGCTAG | 1.2

Set 2
Target: Sal-like protein 4, full length isoform B (SALL4, Homo sapiens, UniProt Q9UJQ4-2, residues 1-616)
Method: universal PBM
Form: double-stranded DNA, one strand shown
Sample: in vitro
Concentration: not given
Setting: 8-mer, flanks averaged, mean of replicates
Direction: higher = stronger binding
Oligonucleotide | E-score
CGGCCGCC | -0.31
ACCTGGTA | -0.107
TGCCCAAA | -0.0553
ACCTTCCC | -0.0555
CTACCGAA | -0.0244
AAATCCTT | 0.214

Set 3
Target: RNA binding protein fox-1 homolog 2, RRM domain, GST-SBP tag (RBFOX2, Homo sapiens, UniProt O43251-10, residues 100-194)
Method: RNA Bind-n-Seq
Form: RNA
Sample: in vitro
Concentration: 365 nM
Setting: natural RNA segment, single round, ends assumed
Reference: no-protein control
Direction: higher = stronger binding
Construct (chain): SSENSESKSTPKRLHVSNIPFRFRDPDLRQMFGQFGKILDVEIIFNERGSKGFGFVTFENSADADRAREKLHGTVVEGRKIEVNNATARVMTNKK
Oligonucleotide | RBNS enrichment (R)
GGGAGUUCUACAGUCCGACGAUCUCCUGGCAUGUGCUAGGGUAAACGAAGGCAUAAUAAGCCAUGGCUGACCUCUGGAGCACCAGGUGCCAGGACUUGUCUCCAUGUGUAUCCAUGCAUUAUAUACCCUGGUGUGGAAUUCUCGGGUGCCAA | 2.08
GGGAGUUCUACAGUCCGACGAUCACUCAGAGUUGGUGUGGCCUACCUGGCUAUACAUCUUCAUCCCUCCCCACCAUCCUGGGGAAGUGAUGGUGUGGCCAGGCAGUUAUAGAUUAAAGGCCUGUGAGUACUGCUGGAAUUCUCGGGUGCCAA | 0.226
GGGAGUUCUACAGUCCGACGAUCCCUCAGCCUGGGACACCUAGGUGGAGAGAGUGGUCUCCGCUCUGAAUUGGAUCCAGGGGACCUGGGCUCAUUCUUCUUGGCUCACCAACCCUGCAGGCCUCAUCUUUCCCUGGAAUUCUCGGGUGCCAA | 0.343
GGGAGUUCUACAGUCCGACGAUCGACAGCAAAACAUCUUAAAUGAUGACUGUAGUUAAUCAGAUGUGACCCCUCUAGGGCCCCUGGUUGGAAGGCUCAGGGUUGAAGCGGGGCCUAGGAGCAAGAACAAGAUUUGGAAUUCUCGGGUGCCAA | 0.375
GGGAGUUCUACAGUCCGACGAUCACCUCAGCCUCCUGAGUUGGGUCCUACAGGCGCACACGACCACGCCCAGCUAAUUUUUUGUAUUUUUAGUAGAGUUGGGGUUUCACCAUGUUAGCCAGGAUGGUCUCGAUUGGAAUUCUCGGGUGCCAA | 0.495

Mixed results
Substance | target | assay | system | setting | how to read | quantity | value
PhoQ, residues 284 288 289 292 302 303 SASVAL | PhoP, residues 12 14 15 18 19 FWNTL (Escherichia coli, UniProt P23836) | Sort-seq, measured: YFP reporter | E. coli | PhoQ-PhoP variant library, added: 10 µM Mg2+ | reference: high Mg2+ state, higher = stronger signaling | fold induction | 0.527

A few entries again (set 2):
Oligonucleotide | E-score
CGGCCGCC | -0.31
ACCTGGTA | -0.107
